Assay results from different studies.
Every numbered part comes from another study and shows a few of its results, in no order. Substitutions count along the parent as printed.

Series 1 — technique: protein binding microarray; molecule type: double-stranded DNA, one strand shown; medium: in vitro; concentration: not given; reference: not given; reading: higher = stronger binding
Target: Histone acetyltransferase KAT6A, both winged helices, GST fusion (KAT6A, Homo sapiens, UniProt Q92794, residues 1-181)
Setting: 8-mer, flanks averaged, mean of 2 arrays, mostly near background
Residues (chain): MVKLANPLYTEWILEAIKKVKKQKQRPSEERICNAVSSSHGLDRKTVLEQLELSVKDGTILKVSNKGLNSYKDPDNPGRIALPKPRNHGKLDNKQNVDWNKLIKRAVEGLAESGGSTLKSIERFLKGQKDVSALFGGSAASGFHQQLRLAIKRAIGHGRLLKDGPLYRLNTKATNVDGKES
Strand | E-score
CCATCCCC | -0.241
CTTAAAAC | -0.103
CACCCTGA | -0.205
TAAAATTA | -0.0493
AATCGTGC | 0.0758
CGGGCTTC | 0.193
CGATTTAA | -0.103
CCTGACTA | -0.1
TCACTTCA | -0.0255
CAAATAGC | -0.0242
CCTTGGAA | -0.15
ACTTTTTA | -0.129
GTGGACGA | -0.101
GAAAAAAC | 0.0535
CACTACAC | -0.00976
GCAGCAAC | 0.0265
AGGGTTAC | 0.067
ACGGATTG | 0.165
CTACTTAC | -0.106
AGATGCTG | -0.244
AAGCGGCC | 0.241
GACAGGCA | -0.142
GACCTGTA | -0.0479
GGCGACTA | -0.0325
AGGACGTC | -0.0982

Series 2 — technique: RNAcompete; molecule type: RNA; medium: in vitro; concentration: 20 nM; setting: 7-mer, probes averaged, single round; reference: mean of 7-mers; reading: higher = stronger binding
Target: PABPC1L2, full length, GST fusion (mouse, UniProt A0ABA7IW68)
Target sequence (chain): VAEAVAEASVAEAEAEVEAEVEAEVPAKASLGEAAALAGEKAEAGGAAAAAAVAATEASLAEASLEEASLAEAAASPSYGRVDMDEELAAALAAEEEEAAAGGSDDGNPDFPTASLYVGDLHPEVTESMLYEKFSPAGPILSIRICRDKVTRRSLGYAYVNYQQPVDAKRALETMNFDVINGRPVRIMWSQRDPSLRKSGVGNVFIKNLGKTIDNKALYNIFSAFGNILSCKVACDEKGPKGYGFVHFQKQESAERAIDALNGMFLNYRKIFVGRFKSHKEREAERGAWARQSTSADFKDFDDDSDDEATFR
Strand | 7-mer Z-score
AGCCAUA | -0.101
GUGAUAC | -0.0971
CGUCCGC | -0.378
UCAUGCU | -0.195
GGGAAUG | 0.253
GCUGGUA | 0.00436
GAACAUG | 0.0642
AUUACCU | -0.269
GAUUAAG | -0.0536
CUACGGU | -0.17
CUGCCAU | -0.191
UUAGUAC | -0.171
AAAAUCC | 2.18
UUGAGCU | -0.253
CCUGUCU | -0.385
GCAGUCG | -0.157
CGGGUAC | 0.0768
CACACGG | 0.0732
GGAGAUU | 0.0442
UUAGGAU | -0.0138
UGCGAGG | 0.182
AGCGACA | 0.0533
AGAACAC | 0.0243
AGACAAA | 1.42

Series 3 — target: CCND2, cyclin fold, Cln2 fusion (human); technique: yeast growth competition, sequencing; medium: yeast; setting: weak parent motif; reference: not given; reading: higher = stronger binding
Parent: REPIN1 docking peptide (human); QSFRGWVALVLHL
Variant | normalised enrichment score
H12A | -0.334
V7A | 0.225
Q1A | -0.542
L13A | -0.304
V10A | -0.383
G5A | -0.0825

Series 4 — technique: DHFR PCA, deep sequencing; medium: yeast; with: (+)-ABA 0.39 µM; reference: wild-type fitted maximum; reading: higher = stronger binding
Target: ABI1, truncated, D143A, DHFR fusion (Arabidopsis thaliana)
Setting: methotrexate growth selection, single substitutions
Parent: PYL1, truncated, DHFR fusion (Arabidopsis thaliana); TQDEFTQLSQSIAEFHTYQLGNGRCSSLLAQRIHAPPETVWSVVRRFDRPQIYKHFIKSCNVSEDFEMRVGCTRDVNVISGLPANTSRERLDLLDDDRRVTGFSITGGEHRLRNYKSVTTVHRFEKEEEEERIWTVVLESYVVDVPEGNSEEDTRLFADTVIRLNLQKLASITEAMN
Variant | relative binding score [%]
R123H | 52.8
S26R | 0.338
E38D | 42
S117C | 15.8
D97K | 48.3
S59N | 30.3
L156N | -18.7
A30C | 32.1
W134G | 34.3
E14A | 2.04
T135L | -7.21
G81S | 36.7
Q31I | 2.54
K168L | 2.95
H55M | 63.7
S171L | 26.1

Series 5 — technique: aptamer microarray, sandwich; molecule type: DNA with 2'F-ANA; medium: in vitro; concentration: 200 nM; with: Cy3 exosite-II aptamer, 400 nM; reading: higher = stronger binding; strand: GGTTGGTGTGGTTGG
Target: Prothrombin, mature alpha-thrombin (F2, Homo sapiens, UniProt P00734)
Setting: whole 15-mer aptamer, many near background
Modification | mean fluorescence intensity [a.u.]
2'F-ANA at 3 4 7 9 10 12 14 15 | 215
2'F-ANA at 1 2 4 5 6 10 11 13 | 50.7
2'F-ANA at 1 4 6 7 8 10 | 49.3
2'F-ANA at 1 4 6 8 10 13 15 | 47.4
2'F-ANA at 3 6 8 9 10 12 | 601
2'F-ANA at 1 4 5 7 12 13 14 | 44.8
2'F-ANA at 1 3 7 11 13 | 257
2'F-ANA at 3 6 7 9 10 11 13 | 430
2'F-ANA at 1 2 3 6 7 8 10 | 97.4
2'F-ANA at 2 4 5 6 9 10 11 | 89.3
2'F-ANA at 1 5 6 7 10 11 12 14 | 46.1
2'F-ANA at 2 3 4 6 7 9 10 11 12 13 14 | 143
2'F-ANA at 3 4 5 6 8 9 10 13 14 | 47.3
2'F-ANA at 2 3 5 6 9 11 13 14 | 50.1
2'F-ANA at 4 5 6 7 10 11 12 13 | 79.7
2'F-ANA at 2 4 6 7 8 9 10 12 14 | 65.5
2'F-ANA at 1 5 6 9 11 13 14 15 | 58
2'F-ANA at 1 4 9 11 13 15 | 74.3
2'F-ANA at 1 2 3 5 6 8 9 10 11 13 14 | 53.9
2'F-ANA at 2 3 4 7 8 9 10 11 | 295
2'F-ANA at 1 2 4 5 10 11 12 14 | 44.9
2'F-ANA at 1 3 5 8 9 10 12 14 | 46.9
2'F-ANA at 1 4 5 6 7 8 13 15 | 48.4
2'F-ANA at 1 3 6 7 8 9 11 12 15 | 366

Excerpt of the above (series 4):
Variant | relative binding score [%]
S59N | 30.3
R123H | 52.8
S171L | 26.1
S26R | 0.338
K168L | 2.95
A30C | 32.1
E14A | 2.04
W134G | 34.3
Q31I | 2.54
H55M | 63.7
D97K | 48.3
E38D | 42
G81S | 36.7
S117C | 15.8
